Measurements gathered from unrelated publications.
Compare with care: the assays were run in different laboratories.

For `O=C1CCc2ccc(OCCCCN3CCN(c4cccc(Cl)c4Cl)CC3)cc2N1`, “adverse event incidence” read 1.8% (measured: Hypertension; genotyped patients, CYP2D6 intermediate metabolizers; dose not given, long-acting oral or depot).
For `CC(=O)O[C@H]1C(=O)[C@@]2(C)[C@H]([C@H](OC(=O)c3ccccc3)[C@]3(O)C[C@H](OC(=O)[C@H](O)[C@@H](NC(=O)c4ccccc4)c4ccccc4)C(C)=C1C3(C)C)[C@]1(OC(C)=O)CO[C@@H]1C[C@@H]2O`, “adverse events, all grades” read 35% (measured: aspartate aminotransferase increased; patients with advanced solid tumours; intravenous, dose not given, phase Ib, related to compound).
`Cc1c(Cl)c(C)[n+]([O-])c(Cl)c1-c1noc(-c2cc(O)c(O)c([N+](=O)[O-])c2)n1`: “adverse drug reaction incidence” 0% (measured: Belching; healthy Chinese subjects; oral, 50 mg, 20 days).
`FC(F)(F)c1ccc(CNc2ccc(Cc3c[nH]c4ncc(Cl)cc34)cn2)cn1` — result for “adverse event incidence”: 15% (measured: Anaemia; patients with advanced solid tumours; oral, dose not given, grade 3 and 4, possibly related to drug).
`NCCONC(=O)[C@@H]1CC[C@@H]2CN1C(=O)N2OS(=O)(=O)O`: “adverse event incidence” 0% (measured: leading to temporary interruption; healthy Chinese men; intravenous, 2 g, treatment-emergent).
`CNC(=O)c1ccc(-c2cnc3ncc(Cc4ccc5ncccc5c4)n3n2)cc1F`: “adverse event incidence” 0% (phase 1 clinical trial, measured: upper abdominal pain; other expansion cohort; oral, 600 mg twice daily, grade 3 or 4).
For `Cc1ccc(Sc2ccccc2N2CCNCC2)c(C)c1`, “adverse event incidence” read 10.5% (any TEAE; healthy adult men; oral, 10 mg single dose, 8 nights, fed).
Under “adverse event incidence”, `Cc1c(C(=O)O)ccc2c3n(nc12)[C@@H]1[C@H](C3)N(CC2CC2)[C@@]2(C(=O)Nc3cc(Cl)ccc32)[C@H]1c1cccc(Cl)c1F` is recorded as 16.7% (phase Ia trial, measured: Headache; cancer patients; oral, dose not given, all patients all grades).
`Cc1cc(Nc2ccc(S(F)(F)(F)(F)F)cc2)n2nc(C(C)(F)F)nc2n1`: “adverse event abdominal pain” 0% (Plasmodium vivax malaria patients; oral, 600 mg).

Excerpt of the above:
Under “adverse event incidence”, `Cc1c(C(=O)O)ccc2c3n(nc12)[C@@H]1[C@H](C3)N(CC2CC2)[C@@]2(C(=O)Nc3cc(Cl)ccc32)[C@H]1c1cccc(Cl)c1F` is recorded as 16.7% (phase Ia trial, measured: Headache; cancer patients; oral, dose not given, all patients all grades).
